Results collected from several papers.
A part holds a random share of what one study measured.

Study 1
Target: Interferon regulatory factor 7, full length, phosphomimetic (IRF7, Homo sapiens, UniProt Q92985, residues 1-503, S471D/S472D/S475D/S476D/S477D/S483D/S484D/S487D)
Method: protein-binding microarray
Molecule type: double-stranded DNA, one strand shown
Sample: in vitro
Tested at: 2200 nM top
Notes: 60-bp whole probe
With: salmon DNA 0.4 mg/ml
Relative to: random background probes
Direction: higher = stronger binding
All sequences stand within: GCCTAGCAC … GTCTTGATTCGCTTGACGCTGCTG
Construct (chain): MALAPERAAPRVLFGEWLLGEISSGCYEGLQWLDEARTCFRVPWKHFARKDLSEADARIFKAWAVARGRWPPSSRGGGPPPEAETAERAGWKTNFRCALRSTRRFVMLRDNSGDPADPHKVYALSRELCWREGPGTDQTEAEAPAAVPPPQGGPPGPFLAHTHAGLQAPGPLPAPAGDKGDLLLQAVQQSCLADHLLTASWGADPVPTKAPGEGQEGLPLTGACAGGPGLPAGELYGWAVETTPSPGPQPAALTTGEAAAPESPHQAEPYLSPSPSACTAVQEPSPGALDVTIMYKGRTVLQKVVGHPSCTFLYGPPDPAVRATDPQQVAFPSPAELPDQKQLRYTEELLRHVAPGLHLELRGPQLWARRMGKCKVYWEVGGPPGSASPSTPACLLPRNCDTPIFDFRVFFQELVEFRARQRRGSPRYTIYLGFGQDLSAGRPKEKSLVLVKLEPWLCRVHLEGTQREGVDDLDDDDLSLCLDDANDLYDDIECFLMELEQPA
Sequence | fitted relative affinity
GACGGTTTCGACACTGAGGACGTGCTA | 2.72 z-score
TCAACTCTGAACCTTCAGACTGTGCTA | 0.153 z-score
AAGACTTTGCTCTGTGCATAGGTGCTA | -0.0553 z-score
TTAGATTCCGGTTTCGGTTAGTGCTAG | 8.27 z-score
TCAATTCTCACTGCAGCACTGTGCTAG | 0.868 z-score
TGAGGTTTCCTTTCCCTTTAGTGCTAG | 4.59 z-score
GACGGTTTCCTTATCCTGGCGTGCTAG | 3.11 z-score
GACGGTCTCCTTATACTGACGTGCTAG | 1.04 z-score
GACGGTTTCGACTTTCAGGACGTGCTA | 7.14 z-score
TCTGTTTTTGCTTTCTTTTTGTGCTAG | 7.32 z-score
TTAGATATCAGTATCGATAAGTGCTAG | -0.107 z-score
GACGGTTTCCTTTTCCTTACGTGCTAG | 6.56 z-score
AACTTTTTTTTTTCCCTGAAGTGCTAG | 1.65 z-score
GACTGACTGCTTTTCCTGACGTGCTAG | 1.2 z-score
GACGGTATCATTATCCTGACGTGCTAG | 0.61 z-score
TCATAAGTTTCACTCTGCACTGTGCTA | 3.6 z-score
GACTGACTGGGTATCGGGACGTGCTAG | -0.461 z-score
GACGGTATCGGGTTTCGGGACGTGCTA | 1.76 z-score
CGAGACCTCGTCTCTATCAAAGTGCTA | -0.184 z-score
TTAGATATCAGTCTCGATTGGTGCTAG | 0.8 z-score
TTAGAACTGAGTCCCGATTAGTGCTAG | -0.0452 z-score
GACGATCTCAGTCTCCAGACGTGCTAG | 0.323 z-score
TTAGATTTTAGACTGGATTAGTGCTAG | -0.558 z-score
TACGGACTGGGTTTCGGGACGTGCTAG | 1.55 z-score
GACCGACTGGGGTATCGGGACGTGCTA | -0.498 z-score

Study 2
Target: Histone acetyltransferase KAT6A, both winged helices, GST fusion (KAT6A, Homo sapiens, UniProt Q92794, residues 1-181)
Method: protein binding microarray
Molecule type: double-stranded DNA, one strand shown
Sample: in vitro
Tested at: not given
Notes: 8-mer, flanks averaged, mean of 2 arrays, mostly near background
Relative to: not given
Direction: higher = stronger binding
Construct (chain): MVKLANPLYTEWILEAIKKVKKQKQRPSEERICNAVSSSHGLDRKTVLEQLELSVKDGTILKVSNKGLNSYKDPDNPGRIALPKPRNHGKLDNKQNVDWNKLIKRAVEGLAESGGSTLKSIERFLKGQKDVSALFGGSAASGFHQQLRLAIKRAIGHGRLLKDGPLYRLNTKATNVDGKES
Sequence | E-score
GCCAATAC | 0.017
AACGGTGG | -0.0816
AGAGGGTA | -0.337
CTCTCAGC | -0.0766
CAAAATGG | -0.0732
CGTATGAC | 0.121
TGCAAGAA | -0.0494
CTCTGTTC | -0.163
TTAGTAAA | -0.0333
CTGTCACA | 0.075
CATCGAAG | 0.0796
AGCGGGTG | 0.177
CCCCTTCA | -0.237
AGTGCCTA | -0.211
CGTATCCC | 0.191
GTTTGTTA | 0.0147
CACCTAGC | -0.0668
ATACATAG | 0.00766
CCCATCAG | -0.157
GTACGCGA | 0.146
CTGGTAGA | -0.308
AATCTAAA | -0.184
AATATGCC | -0.0686
ATACATGG | -0.112
GTGGGTTA | -0.07

Study 3
Target: RNA binding protein fox-1 homolog 2, RRM domain, GST-SBP tag (RBFOX2, Homo sapiens, UniProt O43251-10, residues 100-194)
Method: RNA Bind-n-Seq
Molecule type: RNA
Sample: in vitro
Tested at: 365 nM
Notes: natural RNA segment, single round, ends assumed
Relative to: no-protein control
Direction: higher = stronger binding
All sequences stand within: GGGAGUUCUACAGUCCGACGAUC … UGGAAUUCUCGGGUGCCAA
Target sequence (chain): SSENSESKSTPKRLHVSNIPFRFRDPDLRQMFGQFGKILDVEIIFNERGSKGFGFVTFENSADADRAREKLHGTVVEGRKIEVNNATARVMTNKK
Sequence | RBNS enrichment (R)
CCCUGCUCUGGCCCUGCCCCAGAGCUGUGACCCUUGUCCUUUGACCCAGCCUCUCAUUUCCAUCUCUCCAGACACUGCUCCUUCACCCUCACUGCCACCGGUCCAGCUCC | 0.837
AGCUGCUGGCCAGACCCUGGCGCUGCCACAGUCCUGGCACUGCCCAAGGCCAUACCUGCCUAGCCCUUUGGCUCCAUCCUGUGGAUGCCCACUCACCCCUCAGACUCCUG | 0.158
UAGAUCUUAACAGUUUAUUAUUAACUUUUCAGGUCCUCAUUUAUUGAAAUUUAAAAAUAAAUGAAGGAAUAUAGAGAUGGCACAGGGUUCCAGCUUGUUGUGUUUAUAAA | 2.64
GGGCUUCUUCCUACCAAAGUGUCCCCUCACCAGUCUGCCUAGAGCAUCACUGGAACCCGCACUAAACAAGGACCUUUGGACCAGACAAGAAGUCUUCCCUCAACUACGUG | 0.382
GUUUGUAAUUGUGCAUUACUGACUGCAUAUGUUUGUGUAUGUGUAAAUGUGGGCUCCCUGUUAAGUGGGGCUCAUGGAUACGAGGCCUGAGGAAGUGUGGCUUGCUAGUC | 0.928
UCAGAGAAACAAGAGCACAAGUAAAUGAACACAAAUCCUUCCUUAGGACCACUGCACCACAGGCCUUGUCCAGUGUUCUAUCCCCUCUGAAGAGUCAGGCGAGGCCUGAU | 0.709
AUUUUUUUAGGCUAUAGAAUGAUAUUACAGGUCCCAUGUUGGCUGGAUGGUUGCGUGAGUUUUCGUGUGGCUGAAGAGGCUGCUGCCCUCUUACCUUGCCCUGUUCCCGG | 0.639
UUUCAUGUCCUAUAUUAAAGUACAAAUAGGCUUAAAUUACUGGAUAUUUAAUGUAGUUUCCCAUCCCUAGUCUUCUAUGUCUGUGAUGUUAAUUUCUUUUGUUGCAUAAC | 0.402
GUUACUUGUUCAUUCAAAUCUUGCACCCCCCCCCCCAAGGUUCUCAUUGUUGGAGAGGGUGGGGGAAAGGUUCAAACAUUGUCAAUUUUUCUGACUUUUUAAAUCAUCAU | 0.675
CUGGAGUCUGUUCUCACACCUGUGCGCAGGUUUGCACACUCAAGUUCUCAUGGGCAGGCUCAGGUCUGUCCCGCUGCCCUGGGCACGAGGUCUCCUGAGGACCUGGGCCU | 0.208
UUAUAUCAUUUUGUGGAUAUAGUUAUAAUCUGAUGGGCCUGGCUGGGAGUGGAAGAAGGGAAGCCUUUUGCAAAUAGUAGAGUAUCAGUUGCAGGUGCCAAUGACUAACU | 0.678
UGGGCUUCUGAAAGUUGCCAUCUUCCCUCCGUGGAGCUCCAUUUGCUAUUUUCAUUAUACACUAUGAGGUAAAAUGUAAUAACAAAAGAGAGAGAAGUACCACUGUGGCU | 0.415

Study 4
Target: Sal-like protein 4, full length isoform A (SALL4, Homo sapiens, UniProt Q9UJQ4, residues 1-1053)
Sequence of UniProt Q9UJQ4 (whole entry, looked up): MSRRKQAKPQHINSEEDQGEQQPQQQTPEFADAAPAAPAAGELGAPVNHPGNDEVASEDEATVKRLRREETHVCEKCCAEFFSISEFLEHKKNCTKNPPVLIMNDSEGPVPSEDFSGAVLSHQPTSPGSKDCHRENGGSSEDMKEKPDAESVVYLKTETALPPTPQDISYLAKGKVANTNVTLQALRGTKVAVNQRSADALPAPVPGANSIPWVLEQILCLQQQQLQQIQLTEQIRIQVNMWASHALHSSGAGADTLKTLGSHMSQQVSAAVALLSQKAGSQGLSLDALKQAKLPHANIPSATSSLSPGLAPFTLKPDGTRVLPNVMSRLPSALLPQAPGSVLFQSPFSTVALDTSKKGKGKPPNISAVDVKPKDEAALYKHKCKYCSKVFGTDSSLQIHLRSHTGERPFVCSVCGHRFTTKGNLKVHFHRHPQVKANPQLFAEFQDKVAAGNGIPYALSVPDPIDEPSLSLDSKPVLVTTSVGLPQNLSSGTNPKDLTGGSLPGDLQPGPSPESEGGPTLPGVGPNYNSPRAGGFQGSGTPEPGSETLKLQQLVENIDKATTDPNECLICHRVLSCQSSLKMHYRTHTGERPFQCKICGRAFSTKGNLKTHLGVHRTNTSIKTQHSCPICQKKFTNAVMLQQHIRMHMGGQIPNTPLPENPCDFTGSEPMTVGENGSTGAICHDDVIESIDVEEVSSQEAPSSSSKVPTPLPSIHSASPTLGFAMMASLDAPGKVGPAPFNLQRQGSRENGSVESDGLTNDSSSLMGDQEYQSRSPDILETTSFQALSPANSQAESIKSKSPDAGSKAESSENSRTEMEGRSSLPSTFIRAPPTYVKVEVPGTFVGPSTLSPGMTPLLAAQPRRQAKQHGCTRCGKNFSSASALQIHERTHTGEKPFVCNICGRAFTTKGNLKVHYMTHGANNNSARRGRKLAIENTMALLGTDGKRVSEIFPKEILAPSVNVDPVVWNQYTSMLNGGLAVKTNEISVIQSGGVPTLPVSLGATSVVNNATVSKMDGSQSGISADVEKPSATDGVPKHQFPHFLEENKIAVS
Method: universal PBM
Molecule type: double-stranded DNA, one strand shown
Sample: in vitro
Tested at: 600 nM
Notes: 8-mer, flanks averaged, mean of replicates
Direction: higher = stronger binding
Sequence | E-score
ATTCGCCC | -0.166
AAAATTAC | 0.359
AAATAAAT | 0.359
GAGTGTGC | 0.0322
ATCTGCGA | -0.104
CTTTTGCA | 0.173
AGCGAGCA | -0.127
ATTTAGCC | 0.0552
AATGGCTG | -0.0705
GTTATGGA | 0.301
AGGGTACC | -0.324
AGATCCAT | -0.0282
AACACCAC | -0.0591
TAAGGCAA | 0.0644
CTGTCCAA | 0.0746
CCCTTCGG | -0.35
GTCAAATA | 0.285
CCTGTACA | 0.103
CTCTAAGC | 0.0735
CACGGAAA | 0.006
CCGTAGTC | -0.175
CTTGCCAC | -0.0267
ATGCCTGG | -0.11
ACTGGATC | -0.0904
GCAGTTTA | 0.0573

Excerpt of the above (study 1):
Sequence | fitted relative affinity
GACGGTTTCGACACTGAGGACGTGCTA | 2.72 z-score
GACGGTTTCCTTATCCTGGCGTGCTAG | 3.11 z-score
GACTGACTGCTTTTCCTGACGTGCTAG | 1.2 z-score
GACTGACTGGGTATCGGGACGTGCTAG | -0.461 z-score
TACGGACTGGGTTTCGGGACGTGCTAG | 1.55 z-score
TCATAAGTTTCACTCTGCACTGTGCTA | 3.6 z-score
TCTGTTTTTGCTTTCTTTTTGTGCTAG | 7.32 z-score
GACGGTTTCCTTTTCCTTACGTGCTAG | 6.56 z-score
TTAGATTCCGGTTTCGGTTAGTGCTAG | 8.27 z-score
